Experimental data gathered from unrelated publications.
RPS6KA1 N-terminal kinase domain: Ribosomal protein S6 kinase alpha-1, N-terminal kinase domain (RPS6KA1, Homo sapiens, UniProt Q15418)
RPS6KA1 C-terminal kinase domain: Ribosomal protein S6 kinase alpha-1, C-terminal kinase domain (RPS6KA1, Homo sapiens, UniProt Q15418)

SMILES | target | assay | setting | scale | remaining binding [%]
COc1cc(Nc2nc(C)cc(-c3cnn4nc(OC)ccc34)n2)cc(C(F)(F)F)c1 | RPS6KA1 N-terminal kinase domain | binding, competition with immobilised ligand | 1 µM |  | 100
Cc1ccc(-c2c(/C=C(\C#N)C(=O)NC(C)C)n(CCCO)c3ncnc(N)c23)cc1 | RPS6KA1 N-terminal kinase domain | binding, competition with immobilised ligand | 1 µM |  | 82
Cc1cnc2nc1Nc1cccc(c1)COC/C=C/COCc1cc(ccc1OCCN1CCOCC1)N2 | RPS6KA1 N-terminal kinase domain | binding, competition with immobilised ligand | 0.1 µM |  | 77
C=CC(=O)N1CCc2ccc(-n3c(=O)ccc4cnc5ccc(-c6cnn(C)c6)cc5c43)cc21 | RPS6KA1 C-terminal kinase domain | KINOMEscan | 1 µM | reference: DMSO control | 73
CNC1C[S+]2CC[S+]3CC[S+](C1)[Ru-4]321([N]=C=S)[n]2c3ccc(OC)cc3c3c4c(c5cc(F)c[n+]1c5c32)C(=O)NC4=O (stereo not drawn) | RPS6KA1 N-terminal kinase domain | KinomeScan | 0.1 µM | reference: untreated | 80
COc1c(Cl)cccc1Nc1c(-c2ccncc2C#C[C@@]2(C)CCCN2C(=O)/C=C/CN(C)C)[nH]c2c1C(=O)NCC2 | RPS6KA1 C-terminal kinase domain | binding, competition with immobilised ligand | 3 µM |  | 51
CNC(=O)C1CCN(c2cc(C)c(F)cc2NC(=O)c2ccc(-c3cc(O)ccc3C)c(C)c2)CC1 | RPS6KA1 C-terminal kinase domain | binding, competition with immobilised ligand | 1 µM |  | 92
COc1cc(Nc2nccc(-c3cnn4nc(OC)ccc34)n2)cc(C(F)(F)F)c1 | RPS6KA1 N-terminal kinase domain | binding, competition with immobilised ligand | 1 µM |  | 90
C=CC(=O)N1CCCC(n2c(=O)c3ncccc3n(Cc3ccc(Oc4ccccc4)cc3)c2=O)C1 (stereo not drawn) | RPS6KA1 C-terminal kinase domain | binding, competition with immobilised ligand | 1 µM |  | 100
CCN1CCN(Cc2ccc(C(=O)Nc3ccc(C)c(NCc4cnc5[nH]ccc5c4OC)c3)cc2C(F)(F)F)CC1 | RPS6KA1 N-terminal kinase domain | binding, competition with immobilised ligand | 1 µM |  | 95
Nc1ncc2c(n1)-c1c([nH]c3ccc(C4=CCOCC4)cc13)CCC2 | RPS6KA1 C-terminal kinase domain | binding, competition with immobilised ligand | 1 µM |  | 71
CC(C)=CC1OC(C)(C)C2C=C3C(=O)C(Cl)=CC(O)C3C3C(O)C4OC4C(=O)C132 (stereo not drawn) | RPS6KA1 C-terminal kinase domain | cell-free assay, competition with immobilised ligand | 10 µM |  | 77

Repeated from above:
SMILES | target | assay | setting | scale | remaining binding [%]
COc1cc(Nc2nccc(-c3cnn4nc(OC)ccc34)n2)cc(C(F)(F)F)c1 | RPS6KA1 N-terminal kinase domain | binding, competition with immobilised ligand | 1 µM |  | 90
C=CC(=O)N1CCCC(n2c(=O)c3ncccc3n(Cc3ccc(Oc4ccccc4)cc3)c2=O)C1 (stereo not drawn) | RPS6KA1 C-terminal kinase domain | binding, competition with immobilised ligand | 1 µM |  | 100
